Published values gathered from unrelated publications.
A part holds a random share of what one study measured. Positions count from the first letter of the parent shown.

Sample 1
Target: MAFK, bZIP domain (human)
Method: DHFR protein complementation
Medium: yeast
Setting: single substitutions, most at no-binding floor
Reference: wild-type JUN-FOS pair
Direction: higher = stronger binding
Parent: JUN, bZIP domain (human); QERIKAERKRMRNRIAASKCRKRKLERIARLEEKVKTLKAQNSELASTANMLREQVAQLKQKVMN; partner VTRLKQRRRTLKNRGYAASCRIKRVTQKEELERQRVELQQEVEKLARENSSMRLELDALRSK
For `A49N`, the binding fitness was -1.39 natural log.
With `L52E` the binding fitness was -1.53 natural log.
The binding fitness of `I28S` is reported as -1.55 natural log.
`Q41M` has a binding fitness of -1.44 natural log.

Sample 2
Target: ABI1, truncated, D143A, DHFR fusion (Arabidopsis thaliana)
Method: DHFR PCA, deep sequencing
Medium: yeast
Setting: methotrexate growth selection, single substitutions
Together with: (+)-ABA 0 µM
Reference: wild-type fitted maximum
Direction: higher = stronger binding
Parent: PYL1, truncated, DHFR fusion (Arabidopsis thaliana); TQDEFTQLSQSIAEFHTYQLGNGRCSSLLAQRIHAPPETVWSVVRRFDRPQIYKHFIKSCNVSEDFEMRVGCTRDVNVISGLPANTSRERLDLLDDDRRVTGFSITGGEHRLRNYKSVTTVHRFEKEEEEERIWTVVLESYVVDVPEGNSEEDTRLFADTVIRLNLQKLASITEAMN
For `F103K`, “relative binding score” read -0.129%.
`R123Q`: “relative binding score” 58.7%.
For `E89F`, “relative binding score” read 4.28%.
Under “relative binding score”, `C72P` is recorded as -0.917%.
For `I79W`, “relative binding score” read 21.1%.
Under “relative binding score”, `T17V` is recorded as -0.118%.
`D97C` — result for “relative binding score”: 4.47%.
For `G71V`, “relative binding score” read 2.41%.

Sample 3
Target: CCNA2, cyclin fold, Cln2 fusion (human)
Method: yeast growth competition, sequencing
Medium: yeast
Setting: weak parent motif
Reference: not given
Direction: higher = stronger binding
Parent: MASTL docking peptide (human); PMIAKNLMCELDE
For `N6T`, “normalised enrichment score” read 0.168.
Under “normalised enrichment score”, `N6R` is recorded as -0.047.
`E10F`: “normalised enrichment score” 0.131.
`D12R`: “normalised enrichment score” 0.0883.
Under “normalised enrichment score”, `L11N` is recorded as -0.355.
`L11D`: “normalised enrichment score” -0.761.

Other studies, line by line
`PhoQ, residues 284 288 289 292 302 303 SNGLAW` gave a fold induction of 5.51 (PhoP, residues 12 14 15 18 19 NQGLL (Escherichia coli, UniProt P23836); Sort-seq, measured: YFP reporter; E. coli; PhoQ-PhoP variant library, together with: 10 µM Mg2+; reference: high Mg2+ state, higher = stronger signaling).

For quick reference, copied from above (sample 2):
`R123Q`: “relative binding score” 58.7%.
For `E89F`, “relative binding score” read 4.28%.
